Measured values of several laboratories.
Each numbered part is a random draw from the data of one study; scales do not carry over between parts. Several values in a cell are separate wells, animals, samples, runs or records.
UniProt P00519, sequence (whole entry, unmodified, looked up): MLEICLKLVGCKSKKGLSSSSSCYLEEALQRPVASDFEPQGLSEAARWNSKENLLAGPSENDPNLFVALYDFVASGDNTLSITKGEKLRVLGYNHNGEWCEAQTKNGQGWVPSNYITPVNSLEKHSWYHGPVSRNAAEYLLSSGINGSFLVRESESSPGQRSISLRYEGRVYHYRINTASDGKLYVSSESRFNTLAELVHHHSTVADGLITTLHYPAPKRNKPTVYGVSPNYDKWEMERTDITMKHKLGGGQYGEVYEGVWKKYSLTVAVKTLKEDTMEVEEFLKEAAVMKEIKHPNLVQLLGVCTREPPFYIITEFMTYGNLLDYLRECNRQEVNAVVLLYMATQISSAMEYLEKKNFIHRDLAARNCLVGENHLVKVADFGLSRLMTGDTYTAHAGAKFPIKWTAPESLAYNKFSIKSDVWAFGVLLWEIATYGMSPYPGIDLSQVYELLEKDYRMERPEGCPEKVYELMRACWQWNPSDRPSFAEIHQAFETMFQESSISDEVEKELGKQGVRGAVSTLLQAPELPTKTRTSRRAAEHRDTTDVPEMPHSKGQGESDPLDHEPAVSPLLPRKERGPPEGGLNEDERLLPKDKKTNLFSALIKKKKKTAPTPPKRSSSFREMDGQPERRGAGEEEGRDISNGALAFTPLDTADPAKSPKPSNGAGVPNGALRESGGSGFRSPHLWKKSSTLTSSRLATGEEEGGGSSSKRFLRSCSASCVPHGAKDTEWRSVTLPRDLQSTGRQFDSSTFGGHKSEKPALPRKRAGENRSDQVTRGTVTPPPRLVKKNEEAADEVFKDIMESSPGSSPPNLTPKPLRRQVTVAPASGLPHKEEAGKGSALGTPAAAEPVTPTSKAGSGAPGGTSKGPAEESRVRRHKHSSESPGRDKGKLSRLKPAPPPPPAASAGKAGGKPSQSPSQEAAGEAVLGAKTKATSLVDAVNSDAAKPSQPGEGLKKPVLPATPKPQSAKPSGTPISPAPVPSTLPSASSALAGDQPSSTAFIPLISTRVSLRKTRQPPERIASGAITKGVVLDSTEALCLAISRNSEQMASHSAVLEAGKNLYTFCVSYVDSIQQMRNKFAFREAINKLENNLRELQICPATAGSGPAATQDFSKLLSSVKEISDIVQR
UniProt O43318, sequence (whole entry, looked up): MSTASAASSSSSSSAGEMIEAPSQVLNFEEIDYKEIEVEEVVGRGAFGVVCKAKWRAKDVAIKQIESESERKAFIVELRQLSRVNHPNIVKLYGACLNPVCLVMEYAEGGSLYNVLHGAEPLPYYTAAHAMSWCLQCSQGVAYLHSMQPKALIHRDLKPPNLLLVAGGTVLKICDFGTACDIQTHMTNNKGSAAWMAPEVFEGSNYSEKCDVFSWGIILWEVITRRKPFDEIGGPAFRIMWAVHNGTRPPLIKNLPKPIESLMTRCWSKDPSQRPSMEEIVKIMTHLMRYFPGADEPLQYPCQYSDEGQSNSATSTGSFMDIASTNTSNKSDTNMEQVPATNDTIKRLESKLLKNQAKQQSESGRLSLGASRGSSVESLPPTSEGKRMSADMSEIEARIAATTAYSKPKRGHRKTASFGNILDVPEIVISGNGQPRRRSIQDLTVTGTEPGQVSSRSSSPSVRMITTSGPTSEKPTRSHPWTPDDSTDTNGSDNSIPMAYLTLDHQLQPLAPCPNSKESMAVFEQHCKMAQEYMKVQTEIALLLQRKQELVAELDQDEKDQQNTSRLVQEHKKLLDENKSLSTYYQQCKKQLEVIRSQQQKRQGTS
UniProt Q99755, sequence (whole entry, looked up): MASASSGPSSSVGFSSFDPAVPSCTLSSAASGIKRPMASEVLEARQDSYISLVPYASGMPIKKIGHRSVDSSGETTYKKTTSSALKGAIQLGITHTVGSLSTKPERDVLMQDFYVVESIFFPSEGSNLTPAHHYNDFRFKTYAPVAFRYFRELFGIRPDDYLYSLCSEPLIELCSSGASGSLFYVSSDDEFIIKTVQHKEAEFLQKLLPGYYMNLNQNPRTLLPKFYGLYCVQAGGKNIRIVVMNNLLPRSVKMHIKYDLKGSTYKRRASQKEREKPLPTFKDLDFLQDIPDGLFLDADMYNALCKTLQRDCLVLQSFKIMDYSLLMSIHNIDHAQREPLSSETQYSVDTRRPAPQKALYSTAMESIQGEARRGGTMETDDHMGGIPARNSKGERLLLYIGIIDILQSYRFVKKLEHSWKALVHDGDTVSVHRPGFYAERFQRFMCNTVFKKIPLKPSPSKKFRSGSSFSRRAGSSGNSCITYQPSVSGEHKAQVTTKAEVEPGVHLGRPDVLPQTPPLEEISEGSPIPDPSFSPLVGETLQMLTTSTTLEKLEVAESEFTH
UniProt P07332, sequence (whole entry, looked up): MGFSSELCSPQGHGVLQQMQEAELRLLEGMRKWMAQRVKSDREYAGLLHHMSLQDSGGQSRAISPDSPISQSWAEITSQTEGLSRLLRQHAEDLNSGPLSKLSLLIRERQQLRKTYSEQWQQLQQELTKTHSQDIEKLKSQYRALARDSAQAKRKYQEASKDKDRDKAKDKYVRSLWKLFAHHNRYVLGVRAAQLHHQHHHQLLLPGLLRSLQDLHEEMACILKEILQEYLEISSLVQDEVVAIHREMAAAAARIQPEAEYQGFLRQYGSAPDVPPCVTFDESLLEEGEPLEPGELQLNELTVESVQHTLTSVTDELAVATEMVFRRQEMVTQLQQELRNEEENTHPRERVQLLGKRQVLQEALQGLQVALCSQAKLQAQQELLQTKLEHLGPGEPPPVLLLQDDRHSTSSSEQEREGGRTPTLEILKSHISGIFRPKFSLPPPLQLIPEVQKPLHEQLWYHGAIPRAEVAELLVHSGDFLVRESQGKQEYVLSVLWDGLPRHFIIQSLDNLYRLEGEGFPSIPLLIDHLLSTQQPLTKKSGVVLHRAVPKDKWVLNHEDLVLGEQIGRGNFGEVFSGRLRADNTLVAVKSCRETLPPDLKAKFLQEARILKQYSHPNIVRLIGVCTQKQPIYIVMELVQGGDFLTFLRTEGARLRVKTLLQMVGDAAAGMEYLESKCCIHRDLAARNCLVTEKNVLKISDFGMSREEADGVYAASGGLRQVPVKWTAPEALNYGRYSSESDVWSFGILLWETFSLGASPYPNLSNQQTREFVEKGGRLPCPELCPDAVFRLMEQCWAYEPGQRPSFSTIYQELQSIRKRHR
UniProt Q9UIK4, sequence (whole entry, looked up): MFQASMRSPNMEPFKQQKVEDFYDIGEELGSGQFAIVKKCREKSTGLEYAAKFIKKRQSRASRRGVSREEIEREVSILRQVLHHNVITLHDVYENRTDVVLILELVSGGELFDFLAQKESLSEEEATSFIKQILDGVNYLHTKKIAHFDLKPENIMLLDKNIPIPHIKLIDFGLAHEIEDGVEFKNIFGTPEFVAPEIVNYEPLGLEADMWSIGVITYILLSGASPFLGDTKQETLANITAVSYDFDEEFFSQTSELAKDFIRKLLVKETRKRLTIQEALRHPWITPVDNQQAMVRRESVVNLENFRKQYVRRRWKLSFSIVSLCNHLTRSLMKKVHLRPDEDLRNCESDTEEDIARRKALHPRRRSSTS
UniProt Q16659, sequence (whole entry, looked up): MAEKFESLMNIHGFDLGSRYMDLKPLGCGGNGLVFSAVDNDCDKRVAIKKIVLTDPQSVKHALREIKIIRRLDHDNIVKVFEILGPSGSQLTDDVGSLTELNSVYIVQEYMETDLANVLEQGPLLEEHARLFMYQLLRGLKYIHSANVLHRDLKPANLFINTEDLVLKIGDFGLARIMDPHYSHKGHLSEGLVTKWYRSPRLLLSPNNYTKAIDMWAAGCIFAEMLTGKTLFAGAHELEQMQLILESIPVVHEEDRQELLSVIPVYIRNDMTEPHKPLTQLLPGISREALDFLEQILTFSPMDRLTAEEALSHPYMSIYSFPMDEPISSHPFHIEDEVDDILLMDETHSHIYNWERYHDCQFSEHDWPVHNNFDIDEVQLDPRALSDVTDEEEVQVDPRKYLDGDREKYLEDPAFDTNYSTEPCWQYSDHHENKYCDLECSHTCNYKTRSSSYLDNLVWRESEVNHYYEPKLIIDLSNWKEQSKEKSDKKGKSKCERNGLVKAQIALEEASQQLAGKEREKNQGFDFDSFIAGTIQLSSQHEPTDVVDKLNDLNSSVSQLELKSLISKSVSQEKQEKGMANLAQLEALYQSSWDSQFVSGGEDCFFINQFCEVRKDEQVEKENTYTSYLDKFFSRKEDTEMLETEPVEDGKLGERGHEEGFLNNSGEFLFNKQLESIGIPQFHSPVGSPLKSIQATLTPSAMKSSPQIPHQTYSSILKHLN
UniProt P31152, sequence (whole entry, looked up): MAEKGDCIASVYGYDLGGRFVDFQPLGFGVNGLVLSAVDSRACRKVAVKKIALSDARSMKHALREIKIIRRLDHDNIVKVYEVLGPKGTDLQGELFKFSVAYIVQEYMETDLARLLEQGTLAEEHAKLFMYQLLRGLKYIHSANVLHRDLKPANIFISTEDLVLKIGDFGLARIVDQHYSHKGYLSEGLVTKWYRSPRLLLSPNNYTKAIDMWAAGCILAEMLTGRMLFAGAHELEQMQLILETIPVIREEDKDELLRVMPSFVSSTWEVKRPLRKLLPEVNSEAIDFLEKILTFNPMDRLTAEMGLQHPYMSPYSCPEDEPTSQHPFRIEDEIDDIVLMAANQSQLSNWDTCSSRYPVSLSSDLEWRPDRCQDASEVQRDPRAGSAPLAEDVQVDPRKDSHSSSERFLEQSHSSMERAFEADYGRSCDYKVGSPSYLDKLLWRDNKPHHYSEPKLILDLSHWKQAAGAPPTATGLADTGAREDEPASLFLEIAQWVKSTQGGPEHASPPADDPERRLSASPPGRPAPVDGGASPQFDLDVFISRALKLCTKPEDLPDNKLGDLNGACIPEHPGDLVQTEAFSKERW

Sample 1
Structure (SMILES): FC(F)(F)c1ccc2c(c1)nc(-c1cccnc1)n2C1CC1
Tested at: 1 µM
| target | read-out | mode | method | baseline | remaining binding [%] |
| --- | --- | --- | --- | --- | --- |
| Casein kinase I isoform gamma-2 (CSNK1G2, Homo sapiens, UniProt P78368) | cell-free assay |  | competition with immobilised ligand |  | 100 |
| Mitotic checkpoint serine/threonine-protein kinase BUB1 (BUB1, Homo sapiens, UniProt O43683) | cell-free assay |  | competition with immobilised ligand |  | 89 |
| Mitogen-activated protein kinase 4 (MAPK4, Homo sapiens, UniProt P31152) | cell-free assay |  | competition with immobilised ligand |  | 100 |
| Cyclin-dependent kinase 9 (CDK9, Homo sapiens, UniProt P50750) | cell-free assay |  | competition with immobilised ligand |  | 100 |
| Activin receptor type-2B (ACVR2B, Homo sapiens, UniProt Q13705) | cell-free assay |  | competition with immobilised ligand |  | 100 |
| Serine/threonine-protein kinase Sgk1 (SGK1, Homo sapiens, UniProt O00141) | cell-free assay |  | competition with immobilised ligand |  | 100 |
| Ephrin type-B receptor 6 (EPHB6, Homo sapiens, UniProt O15197) | cell-free assay |  | competition with immobilised ligand |  | 100 |
| Mitogen-activated protein kinase kinase kinase 7 (MAP3K7, Homo sapiens, UniProt O43318) | cell-free assay |  | competition with immobilised ligand |  | 100 |
| Phosphatidylinositol 4,5-bisphosphate 3-kinase catalytic subunit alpha isoform (PIK3CA, Homo sapiens, UniProt P42336, E545K) | cell-free assay |  | competition with immobilised ligand |  | 100 |
| Tyrosine-protein kinase Fes/Fps (FES, Homo sapiens, UniProt P07332) | cell-free assay |  | competition with immobilised ligand |  | 100 |
| Cyclin-dependent kinase 19 (CDK19, Homo sapiens, UniProt Q9BWU1) |  | binder | KINOMEscan competition binding | DMSO | 100 |
| Death-associated protein kinase 2 (DAPK2, Homo sapiens, UniProt Q9UIK4) | cell-free assay |  | competition with immobilised ligand |  | 100 |
| Receptor-type tyrosine-protein kinase FLT3 (FLT3, Homo sapiens, UniProt P36888, N841I) | cell-free assay |  | competition with immobilised ligand |  | 100 |
| Phosphatidylinositol 4-phosphate 5-kinase type-1 alpha (PIP5K1A, Homo sapiens, UniProt Q99755) | cell-free assay |  | competition with immobilised ligand |  | 71 |
| Tyrosine-protein kinase ABL1, phosphorylated (ABL1, Homo sapiens, UniProt P00519, F317I) | binding |  |  |  | 100 |
| Mitogen-activated protein kinase 6 (MAPK6, Homo sapiens, UniProt Q16659) | cell-free assay |  | competition with immobilised ligand |  | 100 |
| Serine/threonine-protein kinase B-raf (BRAF, Homo sapiens, UniProt P15056) | cell-free assay |  | competition with immobilised ligand |  | 100 |

Sample 2
Cell line: HaCaT
Tested at: 100 µM
Time: 36 h
| SMILES | viability |
| --- | --- |
| C=C1CC[C@H](O)C/C1=C/C=C1\CCC[C@]2(C)[C@@H]([C@H](C)/C=C/[C@H](C)C(C)C)CC[C@@H]12 | 24.1% |
| [H]/N=C(/N)N/C(=N/[H])NCCc1ccccc1 | 80.9% |
| CO[C@H]1C[C@@H]2CC[C@@H](C)[C@@](O)(O2)C(=O)C(=O)N2CCCC[C@H]2C(=O)O[C@H]([C@H](C)C[C@@H]2CC[C@@H](OC(=O)C(C)(CO)CO)[C@H](OC)C2)CC(=O)[C@H](C)/C=C(\C)[C@@H](O)[C@@H](OC)C(=O)[C@H](C)C[C@H](C)/C=C/C=C/C=C/1C | 7.11% |
| COc1ccc2[nH]cc(CCNC(C)=O)c2c1 | 87.1% |
| CCCCCCCCc1ccc(CCC(N)(CO)CO)cc1 | 8.1% |
| Cc1cc(O)c2c(c1)C(=O)c1cccc(O)c1C2=O | 96.2% |
| CC(C)(Oc1ccc(CCNC(=O)c2ccc(Cl)cc2)cc1)C(=O)O | 86.3% |
| CC1CCc2c(N3CCC(O)CC3)c(F)cc3c(=O)c(C(=O)O)cn1c23 (stereo not shown) | 92.7% |
| CCCc1nc(C(C)(C)O)c(C(=O)OCc2oc(=O)oc2C)n1Cc1ccc(-c2ccccc2-c2nnn[nH]2)cc1 | 100% |
| COc1ccc2cccc(CCNC(C)=O)c2c1 | 51.8% |

Sample 3
SMILES: COc1cc(C(=O)OCCCN2CCCN(CCCOC(=O)c3cc(OC)c(OC)c(OC)c3)CC2)cc(OC)c1OC
Method: von Frey test
| read-out | species | route | dose | time | notes | paw withdrawal threshold |
| --- | --- | --- | --- | --- | --- | --- |
|  | mouse, CFA inflammatory pain | subcutaneous | 10 mg/kg | 5 h post-dose | second injection, day 3 | 0.32 g and 0.23 g and 0.36 g and 0.13 g |
|  | mouse, CFA inflammatory pain | intraplantar | 10 µg | 24 h post-dose | day 3 after CFA | 0.23 g and 0.29 g and 0.17 g and 0.19 g and 0.32 g |
|  | mouse, CFA inflammatory pain | intravenous | dose not given | 5 h post-dose | third injection, day 5 | 0.32 g and 0.23 g and 0.4 g |
| mechanical pain | mouse, STZ diabetic neuropathy | intravenous | 30 mg/kg | 5 h post-dose | third injection | 0.29 g and 0.11 g and 0.13 g |

Sample 4
Target: Inhibitor of nuclear factor kappa-B kinase subunit epsilon (IKBKE, Homo sapiens, UniProt Q14164)
Read-out: enzyme activity
Mode: inhibitor
Tested at: 0.5 µM
Baseline: control
Residues (Q14164 1-716): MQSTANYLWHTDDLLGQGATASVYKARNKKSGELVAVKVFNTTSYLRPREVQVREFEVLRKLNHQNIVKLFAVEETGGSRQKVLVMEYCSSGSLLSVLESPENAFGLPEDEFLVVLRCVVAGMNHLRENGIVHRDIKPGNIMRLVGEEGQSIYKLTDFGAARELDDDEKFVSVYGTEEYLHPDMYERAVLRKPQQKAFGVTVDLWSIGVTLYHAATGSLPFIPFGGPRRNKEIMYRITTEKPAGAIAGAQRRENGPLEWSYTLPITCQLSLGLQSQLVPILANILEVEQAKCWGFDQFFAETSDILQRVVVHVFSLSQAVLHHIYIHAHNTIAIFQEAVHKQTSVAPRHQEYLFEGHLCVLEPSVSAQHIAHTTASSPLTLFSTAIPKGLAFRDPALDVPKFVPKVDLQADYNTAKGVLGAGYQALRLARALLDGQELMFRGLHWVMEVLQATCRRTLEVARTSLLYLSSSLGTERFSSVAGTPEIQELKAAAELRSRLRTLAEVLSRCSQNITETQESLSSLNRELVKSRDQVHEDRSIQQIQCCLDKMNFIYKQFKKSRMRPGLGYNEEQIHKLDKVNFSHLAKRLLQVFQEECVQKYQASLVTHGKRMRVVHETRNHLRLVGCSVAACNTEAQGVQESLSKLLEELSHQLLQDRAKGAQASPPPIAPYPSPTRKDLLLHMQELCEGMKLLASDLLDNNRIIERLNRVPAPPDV
| Compound | remaining activity [%] |
| --- | --- |
| c1ccc(-c2cnc(Nc3ccc(OCCN4CCCC4)cc3)s2)cc1 | 81.6 |
| c1ccc(-c2[nH]ncc2-c2ccnc3ccccc23)nc1 | 101 |
| C[C@@H]1CCN(C(=O)CC#N)C[C@@H]1N(C)c1ncnc2[nH]ccc12 | 94.8 |
| O=C(NC(NC(=S)Nc1ccc(F)c([N+](=O)[O-])c1)C(Cl)(Cl)Cl)C(c1ccccc1)c1ccccc1 (stereo not shown) | 106 |
| Cc1nc2cc3nc(-c4cccs4)cnc3cc2n1C | 89.8 |
| Cc1cn(-c2cc(NC(=O)c3ccc(C)c(Nc4nccc(-c5cccnc5)n4)c3)cc(C(F)(F)F)c2)cn1 | 94.6 |
| COc1cc2ncnc(Nc3cccc(Cl)c3)c2cc1OC | 101 |
| COc1cc2c(cc1OC)-c1[nH]nc(Nc3cccc(F)c3)c1C2 | 93.3 |
| CN([C@@H](Cc1ccc(OS(=O)(=O)c2cccc3cnccc23)cc1)C(=O)N1CCN(c2ccccc2)CC1)S(=O)(=O)c1cccc2cnccc12 | 92.7 |

A few entries again (sample 2):
| SMILES | viability |
| --- | --- |
| Cc1cc(O)c2c(c1)C(=O)c1cccc(O)c1C2=O | 96.2% |
| CC(C)(Oc1ccc(CCNC(=O)c2ccc(Cl)cc2)cc1)C(=O)O | 86.3% |
| CC1CCc2c(N3CCC(O)CC3)c(F)cc3c(=O)c(C(=O)O)cn1c23 (stereo not shown) | 92.7% |
| CCCc1nc(C(C)(C)O)c(C(=O)OCc2oc(=O)oc2C)n1Cc1ccc(-c2ccccc2-c2nnn[nH]2)cc1 | 100% |
